Assay results of several laboratories.
Protocols differ between the studies behind these lines.
Ugcg: Ceramide glucosyltransferase (Ugcg, Mus musculus, UniProt O88693)
UniProt O88693, sequence (whole entry, looked up): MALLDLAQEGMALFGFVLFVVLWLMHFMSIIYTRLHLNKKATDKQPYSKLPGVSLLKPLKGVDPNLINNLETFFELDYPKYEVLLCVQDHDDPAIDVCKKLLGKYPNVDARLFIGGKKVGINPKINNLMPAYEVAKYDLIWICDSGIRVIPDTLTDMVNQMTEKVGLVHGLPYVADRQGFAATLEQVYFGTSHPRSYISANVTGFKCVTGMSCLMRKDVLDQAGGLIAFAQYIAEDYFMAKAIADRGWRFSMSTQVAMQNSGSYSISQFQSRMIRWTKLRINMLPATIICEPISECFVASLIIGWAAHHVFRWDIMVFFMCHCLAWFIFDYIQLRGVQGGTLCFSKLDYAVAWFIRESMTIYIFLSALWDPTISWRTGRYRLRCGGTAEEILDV
UniProt Q92887, sequence (whole entry, looked up): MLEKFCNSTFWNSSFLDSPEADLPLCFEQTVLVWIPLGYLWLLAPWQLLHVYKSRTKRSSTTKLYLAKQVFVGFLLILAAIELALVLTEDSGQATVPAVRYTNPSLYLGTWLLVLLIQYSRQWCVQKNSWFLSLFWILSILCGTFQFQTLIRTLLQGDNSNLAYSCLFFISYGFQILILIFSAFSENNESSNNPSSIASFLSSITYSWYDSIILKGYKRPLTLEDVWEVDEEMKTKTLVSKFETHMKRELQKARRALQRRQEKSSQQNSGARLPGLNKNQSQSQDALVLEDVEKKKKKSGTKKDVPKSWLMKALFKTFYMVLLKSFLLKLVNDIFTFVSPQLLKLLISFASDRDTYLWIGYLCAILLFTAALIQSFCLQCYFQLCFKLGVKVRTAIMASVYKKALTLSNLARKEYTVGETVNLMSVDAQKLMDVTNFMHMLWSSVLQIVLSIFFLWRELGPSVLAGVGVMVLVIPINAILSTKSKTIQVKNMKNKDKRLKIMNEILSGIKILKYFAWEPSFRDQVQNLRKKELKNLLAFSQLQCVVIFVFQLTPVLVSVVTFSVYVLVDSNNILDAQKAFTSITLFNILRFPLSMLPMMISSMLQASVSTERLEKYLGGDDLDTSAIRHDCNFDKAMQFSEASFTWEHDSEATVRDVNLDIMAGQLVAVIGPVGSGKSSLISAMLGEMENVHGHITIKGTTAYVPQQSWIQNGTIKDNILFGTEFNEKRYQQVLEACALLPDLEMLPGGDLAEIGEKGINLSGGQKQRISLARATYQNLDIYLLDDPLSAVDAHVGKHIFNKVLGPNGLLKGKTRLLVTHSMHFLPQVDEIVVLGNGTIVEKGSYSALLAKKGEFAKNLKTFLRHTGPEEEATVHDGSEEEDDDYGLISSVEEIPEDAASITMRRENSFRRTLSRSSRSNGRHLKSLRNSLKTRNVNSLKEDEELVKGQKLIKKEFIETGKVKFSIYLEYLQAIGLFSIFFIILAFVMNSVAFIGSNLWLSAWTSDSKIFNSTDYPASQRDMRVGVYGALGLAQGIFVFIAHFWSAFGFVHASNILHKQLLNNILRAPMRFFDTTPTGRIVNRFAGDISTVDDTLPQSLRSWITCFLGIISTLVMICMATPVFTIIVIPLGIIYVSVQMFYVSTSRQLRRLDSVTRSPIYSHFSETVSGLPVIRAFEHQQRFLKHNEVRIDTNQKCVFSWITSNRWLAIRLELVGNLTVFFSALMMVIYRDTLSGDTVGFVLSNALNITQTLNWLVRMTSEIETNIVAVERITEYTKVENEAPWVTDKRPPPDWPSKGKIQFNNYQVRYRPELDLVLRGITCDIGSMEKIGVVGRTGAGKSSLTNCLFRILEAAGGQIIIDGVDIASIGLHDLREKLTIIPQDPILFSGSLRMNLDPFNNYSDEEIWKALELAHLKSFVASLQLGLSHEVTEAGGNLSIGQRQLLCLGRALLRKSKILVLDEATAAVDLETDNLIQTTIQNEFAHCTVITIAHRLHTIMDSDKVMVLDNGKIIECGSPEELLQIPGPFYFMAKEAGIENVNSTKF
UniProt P05177, sequence (whole entry, looked up): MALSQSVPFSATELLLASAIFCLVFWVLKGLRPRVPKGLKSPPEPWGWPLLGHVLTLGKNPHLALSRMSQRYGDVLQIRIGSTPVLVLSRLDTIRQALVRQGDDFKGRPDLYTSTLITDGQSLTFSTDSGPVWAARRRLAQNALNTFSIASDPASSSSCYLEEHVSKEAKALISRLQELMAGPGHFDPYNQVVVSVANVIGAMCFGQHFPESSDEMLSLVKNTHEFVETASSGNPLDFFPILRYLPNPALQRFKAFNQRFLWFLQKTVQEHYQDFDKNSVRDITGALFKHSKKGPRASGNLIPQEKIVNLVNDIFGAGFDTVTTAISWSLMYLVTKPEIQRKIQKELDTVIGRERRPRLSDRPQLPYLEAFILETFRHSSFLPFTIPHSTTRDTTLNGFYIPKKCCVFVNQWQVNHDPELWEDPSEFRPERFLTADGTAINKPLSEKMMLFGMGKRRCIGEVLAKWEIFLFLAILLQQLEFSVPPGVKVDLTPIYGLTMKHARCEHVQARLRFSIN

Structure (SMILES) | tested on | test | system | conditions | scale | endpoint | value
OC[C@H]1N[C@H](CCCCOCC23CC4CC(CC(C4)C2)C3)[C@H](O)[C@@H](O)[C@@H]1O | Ugcg | enzyme activity, inhibitor, fluorescence |  |  |  | IC50 | 50 µM
N#C[C@@H]1CCCN1C(=O)CNC(=O)c1ccnc2ccc(OCCCN3CCN(C(=O)CCc4ccc(O)c(CN5CCN6CC(=O)[O][Al-]([18F])([O]C(=O)C5)[O]c5ccc(CCC(=O)N7CCN(CCCOc8ccc9nccc(C(=O)NCC(=O)N%10CCC[C@H]%10C#N)c9c8)CC7)cc5C6)c4)CC3)cc12 (stereo partly drawn) | U-87 MG tumour model |  | host not given, blood | 2 h, tumour-bearing |  | tracer uptake | 3.83 %ID/g
C=C1CC[C@H](OCCCNC(=O)CCOCCOCCOCCOCCOCCOCCOCCOCCOCCOCCOCCOCCOCCOCCOCCOCCOCCOCCOCCOCCOCCOCCOCCOCCOCCOCCOCCOCCOCCOCCOCCOCCOCCOCCOCCOCCNC(=O)CCN2C(=O)CC(SC[C@H](NC(=O)[C@H](Cc3ccccc3)NC(=O)[C@H](CC(N)=O)NC(=O)[C@H](Cc3c[nH]cn3)NC(=O)[C@@H](NC(=O)[C@H](CC(=O)O)NC(=O)[C@H](CCC(N)=O)NC(=O)[C@H](CC(C)C)NC(=O)[C@H](CCCCN)NC(=O)[C@H](CCCCN)NC(=O)[C@H](CCCNC(=N)N)NC(=O)[C@H](CC(C)C)NC(=O)[C@H](Cc3c[nH]c4ccccc34)NC(=O)[C@H](CCC(=O)O)NC(=O)[C@@H](NC(=O)[C@H](CCCNC(=N)N)NC(=O)[C@H](CCC(=O)O)NC(=O)[C@H](CCSC)NC(=O)[C@H](CO)NC(=O)[C@H](CC(N)=O)NC(=O)[C@H](CC(C)C)NC(=O)[C@H](Cc3c[nH]cn3)NC(=O)[C@H](CCCCN)NC(=O)CNC(=O)[C@H](CC(C)C)NC(=O)[C@H](CC(N)=O)NC(=O)[C@H](Cc3c[nH]cn3)NC(=O)[C@H](CCSC)NC(=O)[C@H](CC(C)C)NC(=O)[C@H](CCC(N)=O)NC(=O)[C@@H](NC(=O)[C@H](CCC(=O)O)NC(=O)[C@H](CO)NC(=O)[C@@H](NC(=O)[C@@H](N)CO)C(C)C)[C@@H](C)CC)C(C)C)C(C)C)C(=O)O)C2=O)C/C1=C/C=C1\CCC[C@]2(C)[C@@H]([C@H](C)CCCC(C)(C)O)CC[C@@H]12 (stereo partly drawn) |  |  | rat, plasma | intravenous, 100 µg/kg, single dose |  | MRT | 3.5 h
O=C(CN1CCOCC1)Nc1ccc(C2CCCCC2)cc1 |  | liver microsome stability | cynomolgus liver microsomes | 1 µM |  | hepatic clearance | 35 mL/min/kg
CC(C)OCCOCc1ccc(OCC(O)CN(N=O)C(C)C)cc1 (stereo not drawn) | Salmonella typhimurium | Ames test | TA98 | 50 µg/plate, 30 % rat S9 | baseline: solvent control | revertant fold increase | 0.8 fold
N#C[C@@H]1CC(F)(F)CN1C(=O)CNC(=O)c1ccnc2c(NC(=O)CCOCCOCCOCCOCCOCCOCCNC(=O)[C@H](CCCCNC(=O)CN3CCN(CC(=O)[O-])CCN(CC(=O)[O-])CCN(CC(=O)[O-])CC3)NC(=O)CCCc3ccc(I)cc3)cccc12.[177Lu+3] | U-87 MG tumour model |  | host not given, tumour | 1 h, tumour-bearing |  | tracer uptake | 11.3 %ID/g
O=C1C2CC3CC1CC(C(=O)N1CCN(c4ccc([N+](=O)[O-])c5ncccc45)CC1)(C3)C2 | Escherichia coli | Ames test | WP2 uvrA pKM101 | 0.02 µg/well, without S9 | baseline: vehicle | revertant fold increase | 1.3
O=C(CN1CCOCC1)Nc1ccc([C@H]2[C@@H](F)[C@@H](F)C[C@@H](F)[C@H]2F)cc1 |  | liver microsome stability | cynomolgus liver microsomes | 1 µM |  | hepatic clearance | 6.7 mL/min/kg
C=C(NC(=O)c1csc(-c2nc3c(cc2O)-c2nc(cs2)C(=O)NC(C(C)O)C(=O)NC(=C(C)OC)c2nc(cs2)C(=O)NC2c4nc(cs4)C(=O)NC(COC(=O)c4c5c6c(cccc6n4O)COC(=O)C(OC4CC(C)(O)C(N(C)C)C(C)O4)C2OC5)c2nc-3cs2)n1)C(N)=O (stereo not drawn) |  |  | ICR mice, Streptococcus pneumoniae ATCC 49169 infected, immunocompromised, blood | intravenous, 32 mg/kg/day three times daily |  | Cmax | 1300 ng/mL
NS(=O)(=O)c1cccc(-c2ccc([C@H]3[C@@H](F)[C@@H](F)C[C@@H](F)[C@H]3F)cc2)c1 |  | liver microsome stability | rat liver microsomes | 1 µM |  | hepatic clearance | 6.1 mL/min/kg
CNC(=O)C1CCCN(C(=O)C2CC3CCC2N3C(=O)[C@@H]2C[C@@H](O)CN2C(=O)NCc2cccc(Cl)c2F)C1 (mixture of isomers) | Cytochrome P450 1A2 (CYP1A2, Homo sapiens, UniProt P05177) | preincubation without NADPH | human | 5.56 µM | baseline: negative control | remaining activity | 93.8%
COc1cccc(OC)c1-c1cc(C(=O)NC2(C(=O)O)C3CC4CC(C3)CC2C4)nn1-c1ccc(C(=O)N(C)CCOCCOCCN(C)C(=O)[C@H](CCCCNC(=O)[C@H](CC(C)C)NC(=O)C2OC2C(=O)O)NC(=O)CN2CCN(CC(=O)[O-])CCN(CC(=O)[O-])CCN(CC(=O)[O-])CC2)cc1C(C)C.[177Lu+3] (mixture of isomers) | HT-29 tumour model |  | host not given, blood | 24 h, tumour-bearing |  | tracer uptake | 0.5 %ID/g
O=C(c1ccc(OCCN2CCCCC2)cc1)c1c(-c2ccc(O[C@@H]3O[C@H](C(=O)O)[C@@H](O)[C@H](O)[C@H]3O)cc2)sc2cc(O[C@@H]3O[C@H](C(=O)O)[C@@H](O)[C@H](O)[C@H]3O)ccc12 | ATP-binding cassette sub-family C member 2 (ABCC2, Homo sapiens, UniProt Q92887) | substrate | Sf9 membrane vesicles | pH 7 |  | intrinsic clearance | 41.3 µL/min/mg protein
N#CCNC(=O)c1ccc([C@H]2[C@@H](F)[C@@H](F)C[C@@H](F)[C@H]2F)cc1 |  | liver microsome stability | cynomolgus liver microsomes | 1 µM |  | hepatic clearance | 11 mL/min/kg
OC[C@@H]1[C@@H](O)[C@H](O)[C@@H](O)CN1CCCCOCCC12CC3CC(CC(C3)C1)C2 | Ugcg | enzyme activity, inhibitor, fluorescence |  |  |  | IC50 | 3.63 µM
CC(C)(C)NCC(SS(=O)(=O)O)c1ccccc1 (stereo not drawn) | Schistosoma mansoni | perfusion day 52 | infected Swiss Webster mice | 400 mg/kg single dose, dosed day 7 post-infection | baseline: vehicle control | body weight decrease | -0.238%
O=C(CC1CCOCC1)Nc1ccc([C@H]2[C@@H](F)[C@@H](F)C[C@@H](F)[C@H]2F)cc1 |  | liver microsome stability | rat liver microsomes | 1 µM |  | hepatic clearance | 23 mL/min/kg
CC(C)C[C@@H]1NC(=O)[C@H](CO)NC(=O)[C@H](CC(=O)O)NC(=O)[C@@H]2CCCN2C(=O)[C@H]2CCCN2C(=O)[C@H](C(C)C)NC(=O)[C@H](CC(=O)O)NC(=O)[C@H](CC(N)=O)NC(=O)[C@H](CCCNC(=N)N)NC(=O)[C@H]([C@@H](C)O)NC(=O)[C@H](C(C)C)NC(=O)CCNC(=O)CCNC(=O)[C@H](Cc2ccccc2)NC(=O)[C@H](C(C)C)NC(=O)[C@H](CC(C)C)NC1=O | HEK-293T | subcellular fractionation LC-MS | cytoplasmic fraction | 20 µM, 24 h |  | concentration | not detected

Some of these lines once more:
Structure (SMILES) | tested on | test | system | conditions | scale | endpoint | value
CC(C)OCCOCc1ccc(OCC(O)CN(N=O)C(C)C)cc1 (stereo not drawn) | Salmonella typhimurium | Ames test | TA98 | 50 µg/plate, 30 % rat S9 | baseline: solvent control | revertant fold increase | 0.8 fold
N#C[C@@H]1CC(F)(F)CN1C(=O)CNC(=O)c1ccnc2c(NC(=O)CCOCCOCCOCCOCCOCCOCCNC(=O)[C@H](CCCCNC(=O)CN3CCN(CC(=O)[O-])CCN(CC(=O)[O-])CCN(CC(=O)[O-])CC3)NC(=O)CCCc3ccc(I)cc3)cccc12.[177Lu+3] | U-87 MG tumour model |  | host not given, tumour | 1 h, tumour-bearing |  | tracer uptake | 11.3 %ID/g
